# Measured values from different studies.
# Numbers after ± are the reported error.
# HDAC1: Histone deacetylase 1 (HDAC1, Homo sapiens, UniProt Q13547)
# Sequence of UniProt Q13547 (whole entry, looked up): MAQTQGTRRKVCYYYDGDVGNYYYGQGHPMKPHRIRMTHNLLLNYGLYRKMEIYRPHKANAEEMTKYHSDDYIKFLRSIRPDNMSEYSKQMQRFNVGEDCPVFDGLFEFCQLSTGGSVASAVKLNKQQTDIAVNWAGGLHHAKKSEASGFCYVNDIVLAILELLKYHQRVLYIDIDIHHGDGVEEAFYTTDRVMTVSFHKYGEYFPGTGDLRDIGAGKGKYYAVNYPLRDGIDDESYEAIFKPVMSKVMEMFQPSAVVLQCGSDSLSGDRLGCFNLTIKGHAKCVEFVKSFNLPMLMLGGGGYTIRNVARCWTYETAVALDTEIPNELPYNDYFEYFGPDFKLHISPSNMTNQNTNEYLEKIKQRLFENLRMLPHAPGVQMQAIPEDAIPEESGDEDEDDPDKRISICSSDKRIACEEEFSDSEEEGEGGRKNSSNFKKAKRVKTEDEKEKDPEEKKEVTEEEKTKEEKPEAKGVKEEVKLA
# Urease: Urease (Canavalia ensiformis, UniProt P07374)
# Sequence of UniProt P07374 (whole entry, looked up): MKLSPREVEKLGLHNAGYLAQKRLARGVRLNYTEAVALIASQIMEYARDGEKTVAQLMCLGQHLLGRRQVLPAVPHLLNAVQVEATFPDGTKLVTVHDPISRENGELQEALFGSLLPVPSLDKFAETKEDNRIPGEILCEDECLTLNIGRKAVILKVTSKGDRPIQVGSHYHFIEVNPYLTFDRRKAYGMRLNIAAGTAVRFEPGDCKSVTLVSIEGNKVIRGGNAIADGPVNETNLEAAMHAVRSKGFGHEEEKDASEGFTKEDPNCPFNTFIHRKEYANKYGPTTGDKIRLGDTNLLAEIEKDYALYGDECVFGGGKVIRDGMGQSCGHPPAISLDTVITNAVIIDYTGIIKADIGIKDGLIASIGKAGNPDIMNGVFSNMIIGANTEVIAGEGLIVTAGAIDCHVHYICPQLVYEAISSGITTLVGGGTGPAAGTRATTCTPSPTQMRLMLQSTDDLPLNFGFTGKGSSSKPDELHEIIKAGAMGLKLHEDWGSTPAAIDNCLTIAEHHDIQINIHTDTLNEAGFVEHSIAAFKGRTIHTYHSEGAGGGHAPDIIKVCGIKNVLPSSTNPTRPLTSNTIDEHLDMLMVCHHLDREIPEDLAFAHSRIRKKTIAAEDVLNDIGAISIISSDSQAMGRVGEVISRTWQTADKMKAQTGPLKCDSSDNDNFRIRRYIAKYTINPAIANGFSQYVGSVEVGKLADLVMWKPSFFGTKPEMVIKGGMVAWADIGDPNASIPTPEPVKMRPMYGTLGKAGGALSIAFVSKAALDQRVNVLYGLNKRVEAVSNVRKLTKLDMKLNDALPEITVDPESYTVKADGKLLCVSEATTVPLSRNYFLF
# Sequence of UniProt Q9Y6L6 (whole entry, looked up): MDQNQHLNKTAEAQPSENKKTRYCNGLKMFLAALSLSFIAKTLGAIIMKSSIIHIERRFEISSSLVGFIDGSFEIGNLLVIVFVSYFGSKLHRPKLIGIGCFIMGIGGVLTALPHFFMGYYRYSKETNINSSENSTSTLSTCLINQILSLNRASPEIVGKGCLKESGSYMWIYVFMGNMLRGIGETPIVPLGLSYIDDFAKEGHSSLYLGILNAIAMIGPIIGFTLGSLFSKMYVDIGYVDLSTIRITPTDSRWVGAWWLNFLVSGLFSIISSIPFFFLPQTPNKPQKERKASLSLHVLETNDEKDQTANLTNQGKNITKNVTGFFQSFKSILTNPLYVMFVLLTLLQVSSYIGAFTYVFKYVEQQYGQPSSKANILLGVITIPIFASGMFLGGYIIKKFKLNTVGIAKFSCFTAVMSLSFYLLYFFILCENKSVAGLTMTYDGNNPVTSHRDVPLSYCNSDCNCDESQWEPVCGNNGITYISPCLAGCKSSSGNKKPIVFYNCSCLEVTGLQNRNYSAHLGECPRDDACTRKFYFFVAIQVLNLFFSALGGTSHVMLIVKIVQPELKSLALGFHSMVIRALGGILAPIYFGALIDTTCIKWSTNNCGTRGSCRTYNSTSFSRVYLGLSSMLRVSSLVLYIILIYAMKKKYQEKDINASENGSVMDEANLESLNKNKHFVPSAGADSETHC
# Sequence of UniProt Q969S2 (whole entry, looked up): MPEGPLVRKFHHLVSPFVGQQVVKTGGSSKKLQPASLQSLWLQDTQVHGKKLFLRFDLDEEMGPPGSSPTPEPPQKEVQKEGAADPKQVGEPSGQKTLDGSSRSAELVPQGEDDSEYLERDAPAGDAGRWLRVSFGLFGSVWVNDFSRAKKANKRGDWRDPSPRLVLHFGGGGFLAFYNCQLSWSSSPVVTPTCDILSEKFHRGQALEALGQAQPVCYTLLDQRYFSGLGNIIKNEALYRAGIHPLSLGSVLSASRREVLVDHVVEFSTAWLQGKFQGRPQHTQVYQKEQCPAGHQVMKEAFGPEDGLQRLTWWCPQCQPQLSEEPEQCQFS
# Sequence of UniProt P26038 (whole entry, looked up): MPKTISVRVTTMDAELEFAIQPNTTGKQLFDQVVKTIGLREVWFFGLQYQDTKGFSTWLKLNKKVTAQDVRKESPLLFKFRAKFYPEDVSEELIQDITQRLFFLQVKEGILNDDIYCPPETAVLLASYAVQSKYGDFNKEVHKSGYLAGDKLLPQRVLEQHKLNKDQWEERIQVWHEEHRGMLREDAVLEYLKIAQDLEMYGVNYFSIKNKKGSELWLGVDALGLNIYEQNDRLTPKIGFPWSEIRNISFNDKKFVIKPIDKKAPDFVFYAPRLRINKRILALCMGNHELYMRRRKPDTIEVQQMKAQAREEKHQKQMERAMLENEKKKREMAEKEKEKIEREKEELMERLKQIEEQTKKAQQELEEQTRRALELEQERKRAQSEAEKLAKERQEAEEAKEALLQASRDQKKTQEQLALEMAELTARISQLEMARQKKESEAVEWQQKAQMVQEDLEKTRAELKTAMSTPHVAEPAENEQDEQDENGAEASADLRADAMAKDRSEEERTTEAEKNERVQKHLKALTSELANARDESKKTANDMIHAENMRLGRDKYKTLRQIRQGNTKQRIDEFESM
# Sequence of UniProt P37231 (whole entry, looked up): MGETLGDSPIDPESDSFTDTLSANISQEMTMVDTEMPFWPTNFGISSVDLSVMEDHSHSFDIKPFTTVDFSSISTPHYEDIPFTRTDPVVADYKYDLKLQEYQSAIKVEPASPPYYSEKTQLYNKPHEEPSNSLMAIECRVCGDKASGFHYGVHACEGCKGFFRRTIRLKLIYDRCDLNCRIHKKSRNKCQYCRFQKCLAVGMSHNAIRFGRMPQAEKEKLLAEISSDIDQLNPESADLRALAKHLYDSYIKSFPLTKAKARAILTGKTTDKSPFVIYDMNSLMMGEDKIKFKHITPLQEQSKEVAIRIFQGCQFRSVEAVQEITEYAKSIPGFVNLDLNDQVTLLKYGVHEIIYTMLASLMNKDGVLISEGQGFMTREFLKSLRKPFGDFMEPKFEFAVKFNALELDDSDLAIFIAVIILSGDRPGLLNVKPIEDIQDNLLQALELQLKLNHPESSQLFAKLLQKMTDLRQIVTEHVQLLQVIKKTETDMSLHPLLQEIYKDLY
# Sequence of UniProt P28335 (whole entry, looked up): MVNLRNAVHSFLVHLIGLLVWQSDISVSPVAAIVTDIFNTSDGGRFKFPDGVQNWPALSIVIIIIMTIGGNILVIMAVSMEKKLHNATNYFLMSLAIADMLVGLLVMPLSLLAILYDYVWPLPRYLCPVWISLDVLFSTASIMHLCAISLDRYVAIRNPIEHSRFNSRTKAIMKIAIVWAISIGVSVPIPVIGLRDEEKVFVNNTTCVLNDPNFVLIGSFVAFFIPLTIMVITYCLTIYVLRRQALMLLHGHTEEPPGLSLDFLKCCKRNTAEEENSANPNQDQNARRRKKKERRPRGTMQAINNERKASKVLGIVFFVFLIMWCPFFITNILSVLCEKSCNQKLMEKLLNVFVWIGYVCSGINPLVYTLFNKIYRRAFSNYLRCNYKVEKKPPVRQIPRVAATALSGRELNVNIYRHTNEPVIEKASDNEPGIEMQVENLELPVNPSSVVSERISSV
# Sequence of UniProt Q96LA8 (whole entry, looked up): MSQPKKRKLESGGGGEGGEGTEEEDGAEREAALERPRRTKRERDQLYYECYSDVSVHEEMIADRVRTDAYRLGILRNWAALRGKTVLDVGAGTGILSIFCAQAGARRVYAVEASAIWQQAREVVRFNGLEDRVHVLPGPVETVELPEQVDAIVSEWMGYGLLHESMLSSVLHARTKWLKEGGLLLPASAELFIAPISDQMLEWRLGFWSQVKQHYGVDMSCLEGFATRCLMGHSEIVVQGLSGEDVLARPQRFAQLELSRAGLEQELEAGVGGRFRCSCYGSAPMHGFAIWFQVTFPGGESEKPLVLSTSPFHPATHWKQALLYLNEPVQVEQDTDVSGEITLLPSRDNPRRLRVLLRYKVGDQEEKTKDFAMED
# Sequence of UniProt Q9HC16 (whole entry, looked up): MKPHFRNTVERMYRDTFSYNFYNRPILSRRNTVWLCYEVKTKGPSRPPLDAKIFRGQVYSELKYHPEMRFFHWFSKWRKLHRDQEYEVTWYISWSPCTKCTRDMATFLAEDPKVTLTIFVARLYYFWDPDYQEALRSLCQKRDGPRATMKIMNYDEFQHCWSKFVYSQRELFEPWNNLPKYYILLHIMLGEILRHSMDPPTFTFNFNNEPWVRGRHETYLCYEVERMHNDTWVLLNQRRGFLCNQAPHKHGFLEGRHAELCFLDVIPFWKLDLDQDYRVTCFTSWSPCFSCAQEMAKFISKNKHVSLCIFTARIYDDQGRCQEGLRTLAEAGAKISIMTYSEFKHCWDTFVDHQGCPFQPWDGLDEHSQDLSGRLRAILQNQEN
# Sequence of UniProt Q969T7 (whole entry, looked up): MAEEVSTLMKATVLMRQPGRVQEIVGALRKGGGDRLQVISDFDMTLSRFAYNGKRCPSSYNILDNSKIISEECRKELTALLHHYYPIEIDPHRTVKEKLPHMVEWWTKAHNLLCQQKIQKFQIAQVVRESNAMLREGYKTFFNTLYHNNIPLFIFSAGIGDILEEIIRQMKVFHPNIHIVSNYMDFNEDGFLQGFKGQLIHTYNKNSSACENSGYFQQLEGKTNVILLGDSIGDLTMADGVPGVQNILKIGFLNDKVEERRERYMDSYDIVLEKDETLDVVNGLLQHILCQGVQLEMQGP
Compound,target,assay,system,conditions,IC50
CC(C)C[C@H](NC(=O)[C@H](CCC(=O)O)NC(=O)[C@H](Cc1ccccc1)NC(=O)[C@H](C)NC(=O)[C@H](CC(=O)O)NC(=O)[C@@H]1CCCN1C(=O)[C@H](Cc1ccc(O)cc1)NC(=O)[C@H](CCCCN)NC(=O)[C@H](Cc1c[nH]c2ccccc12)NC(=O)[C@H](CO)NC(=O)CNC(=O)CNC(=O)[C@H](CC(=O)O)NC(=O)[C@@H](N)CCC(=O)O)C(=O)N[C@@H](CO)C(=O)NCC(=O)O,"Moesin, with CD44 (Homo sapiens, UniProt P26038)","CD44 peptide binding, TR-FRET",,with: CD44 peptide,1.4 µM
O=C(/C=C/C=C/c1ccc2c(c1)OCO2)NC(Cc1c[nH]c2ccccc12)C(=O)O (stereo not drawn),"Peroxisome proliferator-activated receptor gamma (PPARG, Homo sapiens, UniProt P37231)","ligand displacement, FP",,,1.03 µM
O=C1c2ccc(O)c(O)c2C(=O)N1Cc1cccc(Cl)c1F,"Gag-Pol polyprotein, integrase (gag-pol, Human immunodeficiency virus 1, UniProt P12497)","strand transfer, inhibitor, gel-based",,recombinant wild-type integrase,0.9 ± 0.2 µM
Cc1cc(Nc2cc(CN(C)C)cc(NC(=O)c3cc(CN(C)C)cc(Nc4ccnc5ccccc45)c3)c2)nc(N)n1,"NEIL2 (Homo sapiens, UniProt Q969S2)","enzyme activity, inhibitor",,,0.3 to 0.6 µM
CC(=O)[C@H]1CC[C@H]2[C@@H]3CC=C4C[C@@H](O)CC[C@]4(C)[C@H]3CC[C@]12C,"Carbonic anhydrase 2 (CA2, Homo sapiens, UniProt P00918)","enzyme activity, inhibitor, absorbance",,,89.4 µM
NC(=O)CCCCC=C1C(=O)OC1CCc1ccccc1 (stereo not drawn),"Phosphatidylserine lipase ABHD16A (Homo sapiens, UniProt O95870)","enzyme activity, inhibitor",,,> 10 µM
Nc1nc2c(c(=O)[nH]1)[n+](Cc1ccc(S(=O)(=O)F)cc1)cn2[C@@H]1O[C@H](COP(=O)(O)O)[C@@H](O)[C@H]1O,"7-methylguanosine phosphate-specific 5'-nucleotidase (NT5C3B, Homo sapiens, UniProt Q969T7)","m7GMP dephosphorylation, inhibitor, malachite green",,covalent binding conditions,0.067 µM
CSCC[C@H](NC=O)C(=O)N[C@@H](CCC(=O)O)C(=O)N[C@@H](Cc1ccccc1)C(=O)N[C@H](C(=O)N[C@@H](C)C(=O)N[C@@H](CCCCN)C(=O)N[C@@H](CC(C)C)C(=O)N[C@@H](Cc1ccccc1)C(=O)N[C@@H](CCCCN)C(=O)N[C@@H](Cc1ccccc1)C(=O)N[C@@H](Cc1ccccc1)C(=O)N[C@@H](CCCCN)C(=O)N[C@@H](CC(=O)O)C(=O)N[C@@H](CC(C)C)C(=O)N[C@@H](CC(C)C)C(=O)NCC(=O)N[C@@H](CCCCN)C(=O)N[C@@H](Cc1ccccc1)C(=O)N[C@@H](CC(C)C)C(=O)NCC(=O)N[C@@H](CC(N)=O)C(=O)N[C@@H](CC(N)=O)C(=O)O)C(C)C,"N-formyl peptide receptor 2 (FPR2, Homo sapiens, UniProt P25090)","ligand displacement, radioligand",,cell membranes,0.0501 µM
CC(C)[C@H](NC(=O)c1ccc(CCc2nc3c(c(=O)[nH]2)CCC3)cc1)C(=O)NC1COC1,"72 kDa type IV collagenase (MMP2, Homo sapiens, UniProt P08253)","enzyme activity, inhibitor",,,> 5 µM
Cc1cc(C(=O)COn2nnc3ccc(S(C)(=O)=O)cc32)c(C)n1C,"Procathepsin L (CTSL, Homo sapiens, UniProt P07711)","enzyme activity, inhibitor, FRET",,,> 100 µM
Nc1ncnc2c1ncn2[C@@H]1O[C@H](CSCCNC(=O)NCCc2ccccc2)[C@@H](O)[C@H]1O,"Protein arginine N-methyltransferase 6 (PRMT6, Homo sapiens, UniProt Q96LA8)","enzyme activity, inhibitor, radiometric",,,> 50 µM
N=C(N)NCCC[C@H](NC(=O)[C@@H](N)CCCCN)C(=O)N1CCC[C@H]1C(=O)N1CCC[C@H]1C(=O)NCC(=O)N[C@@H](Cc1ccccc1)C(=O)N[C@@H](CO)C(=O)N1CCC[C@H]1C(=O)N[C@@H](Cc1ccccc1)C(=O)N[C@@H](CCCCN)C(=O)O,"B1 bradykinin receptor (BDKRB1, Homo sapiens, UniProt P46663)",,,,0.78 µM
N#Cc1cc(C(=O)c2ccc3ccccc3c2O)c[nH]c1=O,"Prostaglandin G/H synthase 2 (PTGS2, Ovis aries, UniProt P79208)","enzyme activity, inhibitor, ELISA",,,27.9 µM
N#Cc1cn([C@@H]2O[C@H](CSCC[C@H](N)C(=O)O)[C@@H](O)[C@H]2O)c2ncnc(N)c12,"DNA (cytosine-5)-methyltransferase 1 (DNMT1, Homo sapiens, UniProt P26358)","enzyme activity, inhibitor, radiometric",,,2 µM
C#CCC[C@](C)(O)[C@H]1CC[C@H]2[C@@H]3CC=C4C[C@@H](O)CC[C@]4(C)[C@H]3CC[C@@]21C,"Protein smoothened (Smo, Mus musculus, UniProt P56726)",cell-free assay,,,1.3 µM
CC[C@H](C)[C@H](NC(=O)[C@@H](NC(=O)[C@@H](NC(=O)[C@@H](N)CCCCN)[C@@H](C)CC)[C@@H](C)CC)C(=O)N[C@@H](Cc1ccc(O)cc1)C(=O)N[C@@H](CC(N)=O)C(=O)O,"Angiotensin-converting enzyme (ACE, Oryctolagus cuniculus, UniProt P12822)","enzyme activity, inhibitor",,,58.7 µM
CC[C@H](C)[C@H](NC(=O)[C@H](C)N)C(=O)N[C@@H](CCCNC(=N)N)C(=O)N[C@@H](CCC(N)=O)C(=O)N[C@H](C(=O)N[C@@H](Cc1c[nH]cn1)C(=O)N[C@@H](CC(N)=O)C(=O)N[C@H](C(=O)N[C@@H](Cc1ccccc1)C(=O)N[C@@H](Cc1ccccc1)C(=O)N[C@@H](Cc1ccccc1)C(=O)N[C@@H](Cc1ccccc1)C(=O)N[C@@H](Cc1ccccc1)C(=O)N[C@@H](CCCCN)C(=O)N[C@@H](CCCNC(=N)N)C(=O)N[C@@H](CCCNC(=N)N)C(=O)O)[C@@H](C)CC)[C@@H](C)O,"histidine kinase ComD (Streptococcus pneumoniae serotype 2, UniProt A0A0H2ZM50)","reporter gene, antagonist","Streptococcus pneumoniae, D39 comX::lacZ","30 min, 37 °C, with: CSP1 50 nM",> 10 µM
C[C@@]12CC[C@@H]3c4cc(Cl)c(O)c(Cl)c4CC[C@H]3[C@@H]1CCC2=O,"Aldo-keto reductase family 1 member C3 (AKR1C3, Homo sapiens, UniProt P42330)","enzyme activity, inhibitor, absorbance",,pH 9,12.8 µM
CC[C@H](C)[C@H](N)C(=O)N[C@@H](Cc1c[nH]cn1)C(=O)N[C@@H](CC(C)C)C(=O)N[C@@H](C)C(=O)N[C@@H](C)C(=O)N[C@@H](Cc1ccccc1)C(=O)N[C@@H](CC(=O)O)C(=O)N[C@@H](CS)C(=O)N[C@@H](Cc1ccccc1)C(=O)O,"DNA dC->dU-editing enzyme APOBEC-3G (APOBEC3G, Homo sapiens, UniProt Q9HC16)",,,,> 100 µM
C=Cc1cc(OC)c2c(c1)c(=O)oc1c2cc(OC)c2c(O)ccc([C@@H]3O[C@H](C)[C@H](O)[C@@](C)(O)[C@H]3O)c21,"Bifunctional protein GlmU (Staphylococcus aureus, UniProt Q5HIH6)","enzyme activity, inhibitor, absorbance",,,8.46 µM
Cc1ccc(-c2nc3c(=O)n(C)c(=O)nc-3n(C)n2)cc1,"Glutathione reductase, mitochondrial (GSR, Homo sapiens, UniProt P00390)","enzyme activity, inhibitor",,,> 100 µM
Cc1cc(S(=O)(=O)Nc2ncccn2)c(F)cc1N(C)C1CCN([C@H](C)c2ccccc2)CC1,"Sodium channel protein type 8 subunit alpha (SCN8A, Homo sapiens, UniProt Q9UQD0)","use-dependent ion current block, inhibitor, patch clamp",,"held at V0.5, pulse 500",0.197 µM
O=C(CS)NCCCCCNC(=O)c1ccccc1,HDAC1,"enzyme activity, inhibitor",,,3.36 µM
CSCC[C@H](NC(=O)[C@H](Cc1ccccc1)NC(=O)[C@H](Cc1c[nH]cn1)NC(=O)CNC(=O)[C@@H](NC(=O)[C@H](C)NC(=O)[C@H](Cc1c[nH]c2ccccc12)NC(=O)[C@H](CCC(N)=O)NC(=O)[C@@H]1CCC(=O)N1)C(C)C)C(N)=O,"Neuromedin-B receptor (NMBR, Homo sapiens, UniProt P28336)","NMBR activity, cell-based",,,< 0.001 µM
O=C(CCCCCCC(=O)Nc1ccc(N=Nc2ccccc2)cc1)NO,HDAC1,"enzyme activity, inhibitor",,"cis isomer, irradiated",0.045 ± 0.008 µM
C[C@H](CCC(=O)N[C@H](CC(c1c[nH]c2ccccc12)c1c[nH]c2ccccc12)C(=O)O)[C@H]1CC[C@H]2[C@@H]3CC[C@@H]4C[C@H](O)CC[C@]4(C)[C@H]3CC[C@]12C,"Beta-galactoside alpha-2,6-sialyltransferase 1 (ST6GAL1, Homo sapiens, UniProt P15907)","enzyme activity, UPLC",,,11.3 ± 0.4 µM
CC(=O)CCC1C(=O)NC(C(C)C)C(=O)NC(Cc2cc(O)cc(F)c2)C(=O)N2CCCC(N2)C(=O)OC(C(C)=CC=CC(=O)N2CCCCO2)CC=CC=CC(O)C(C)C1O (stereo not drawn),"Solute carrier organic anion transporter family member 1B1 (SLCO1B1, Homo sapiens, UniProt Q9Y6L6)","transporter uptake, inhibitor",CHO,pH 7.3,4.31 µM
CC(=O)Nc1ccc2ccn(-c3cc(NS(=O)(=O)c4ccccc4)n4ncc(C#N)c4n3)c2c1,"Casein kinase II subunit alpha' (CSNK2A2, Homo sapiens, UniProt P19784)","target engagement in cells, BRET",,,1.26 µM
C/C=C1/CN2CCc3c([nH]c4ccccc34)[C@@H]2C[C@@H]1/C(=C\OC)C(=O)OC,"5-hydroxytryptamine receptor 2C (HTR2C, Homo sapiens, UniProt P28335)","GTPγS binding, antagonist, radiometric",,,6.19 µM
CN(C)[C@H]1C[C@@]23CC[C@@]4(O2)C(=CC[C@]2(C)[C@@H](c5ccc6ccncc6c5)CC[C@H]24)C=C3[C@@H](O)[C@@H]1O,"Serine/threonine-protein kinase haspin (HASPIN, Homo sapiens, UniProt Q8TF76)","enzyme activity, inhibitor, radiometric",,,0.13 µM
NC1CCc2cc(O)c(O)cc2C1 (stereo not drawn),"Carbamate kinase (Giardia intestinalis, UniProt A8BB85)","enzyme activity, ATP luminescence",,,13 µM
COc1cc(-c2nn(C3CCC(N4CCN(C)CC4)CC3)c3ncnc(N)c23)ccc1NC(=O)OCc1ccccc1 (stereo not drawn),"LIM domain kinase 2 (LIMK2, Homo sapiens, UniProt P53671)","enzyme activity, inhibitor",,,0.79 µM
COCC1CCCCN1C(=O)n1cc(C(O)(c2ccccc2)c2ccccc2)nn1 (stereo not drawn),"sn-1-specific diacylglycerol lipase ABHD11 (Mus musculus, UniProt Q8K4F5)","enzyme activity, inhibitor",,,0.001 µM
Cc1ccc2nc(C(F)(F)F)c(C(=O)NCc3cccc(Cl)c3)n2c1,"Cytochrome P450 2D6 (CYP2D6, Homo sapiens, UniProt P10635)",inhibitor,,,1.9 µM
O=P(O)(O)CNCc1ccccc1,Urease,inhibitor,,pH 7,> 1000 µM
N[C@H](C(=O)N1CCCC1)C1CCN(c2nccc3c(-c4ncc(Cl)cc4Cl)cccc23)CC1,"Protein-arginine deiminase type-3 (PADI3, Homo sapiens, UniProt Q9ULW8)","enzyme activity, inhibitor, absorbance",,,0.106 µM
CCC(CC)OC1C=C(C(=O)OC(C)OC(=O)C(N)C(C)C)CC(NC(=N)N)C1NC(C)=O (mixture of isomers),"Solute carrier family 15 member 1 (SLC15A1, Homo sapiens, UniProt P46059)","transporter uptake, inhibitor, radiometric",,pH 6,< 1000 µM
N#Cc1ccc(NC(=O)c2cccc(CC3CCCCC3)n2)c(Cc2ccccc2)c1,"Capsid scaffolding protein, protease domain (Human herpesvirus 8 type P, UniProt Q2HRB6)",,,pH 8,no inhibition
NC(=O)NCC(=O)NC1CCCCC1,Urease,"enzyme activity, inhibitor, absorbance",,,12.9 µM
